# Assay results pooled from the literature.
# Compare with care: the assays were run in different laboratories.
SMILES,cell line,test,test system,conditions,how to read,measurement,value
Cc1nn(-c2nc3c(F)cc(F)cc3s2)c(O)c1C(c1ccc(C(F)(F)F)cc1)c1c(C)nn(-c2nc3c(F)cc(F)cc3s2)c1O,RAW-ISG,IFN luciferase reporter,,"20 µM, together with: HT-DNA",,inhibition,99.9%
COc1cnc2cccc(N3CCc4c(cc(Cn5ccnc5C)cc4-c4cn(C)nc4C(F)(F)F)C3=O)c2c1,Kasumi 1,"cell growth, inhibitor",,120 h,,EC50,11.5 µM
O=c1[nH]nc(OCCCc2ccc(Cl)cc2)c(NCc2cccnc2)c1Br,HEK-293T,"RNA-seq GSEA, measured: HALLMARK_XENOBIOTIC_METABOLISM",,concentration not given,direction not given,normalized enrichment score,0.991
COc1cccc2c1C(=O)c1c(O)c3c(c(O)c1C2=O)C[C@@](O)(C(=O)CO)C[C@@H]3O[C@H]1C[C@H](N)[C@H](O)[C@H](C)O1,BT-16,"cell viability, MTT",,"10 µM, 72 h",,inhibition,88.7%
Cc1cc(N2CCc3c(c(C)nn3CC34CCC(NC(=O)[C@@H]5COCCN5)(CC3)CC4)C2)c2cnn(C)c2n1,human PBMC,"qRT-PCR, measured: IFI6 mRNA",,"100 nM, together with: ssRNA",,inhibition,96%
CCn1cc(-c2cc(Cn3ccnc3)cc3c2CCN([C@H](c2cc(OC)ccn2)C2CC2)C3=O)c(C(F)(F)F)n1,NCI-H1437,"cell growth, inhibitor",,120 h,,EC50,> 30 µM
C=C1C(=O)O[C@H]2[C@H]1CC/C(C)=C/CC[C@@]1(C)O[C@@H]21,BT-16,"cell viability, MTT",,"10 µM, 72 h",,inhibition,94.9%
C=CC(=O)Nc1cc(Nc2nccc(-c3cn(C)c4ccccc34)n2)c(OC)cc1N(C)CCN(C)C,NCI-H2073 ASV knock-in,"cell proliferation, CellTiter-Glo",,"72 h, geometric mean",,IC50,0.0696 µM
Nc1cccc2c1C(=O)N(C1CCC(=O)NC1=O)C2=O (centres unmarked),bone marrow CD138+ myeloma cells,XTT,human,0.2 µM,relative to: untreated,relative viability,1
C=Cc1c2[n-]c(c1C)/C=c1\[n-]/c(c(C)c1C=C)=C\c1[n-]c(c(CCC(=O)O)c1C)/C=c1\[n-]c(c(C)c1CCC(=O)O)=C2.[Sn+4],SH-SY5Y,"RNA-seq, measured: LDLR mRNA",,"5 µM, 5 h",relative to: untreated cells,fold change,1.9
Cc1cnc2ccc3c(c2n1)N1CCC(O)N=C1N3C (centres unmarked),BALB/c 3T3,colony formation,,50 µM,,plating efficiency,0%
CCCCCCOC(=O)[C@]1(O)C[C@@H]2O[C@@]1(C)n1c3ccccc3c3c4c(c5c6ccccc6n2c5c31)C(=O)NC4,SK-OV-3,ATP,3D gellan gum culture,"0.01 µM, 4 days",relative to: untreated,relative cell number,82.4%
CC(=O)Nc1cc(Oc2ccc3c(c2)CCN3C(=O)Nc2ccc(CN3CCN(C)CC3)c(C(F)(F)F)c2)ncn1,MHHCALL4 cells,"Western blot, measured: JAK2, STAT5, STAT3",,concentration not given,,phosphorylation,inhibited
Cn1cc(-c2ccc(-c3cncc(Cl)c3N3CCC4(CCNC4=O)CC3)cc2)cn1,COLO 205,"gene expression, microarray, measured: G0S2 mRNA",,"concentration not given, 6 h",relative to: untreated cells,log2 fold change,3.08
CC(C)C[C@H](NC(=O)[C@H](Cc1ccccc1)NC(=O)c1cnccn1)B(O)O,BT-16,"cell viability, MTT",,"10 µM, 72 h",,inhibition,94.6%
CCCCN1C[C@H](O)[C@@H](O)[C@@H](O)[C@H]1CO,sample J patient fibroblasts,"GlcCer level lowering, LC-MS/MS, measured: GlcCer d18:1/16:0",,216 h,,IC50,34.5 µM
CN(C)c1ccc2cc(C(=O)NS(=O)(=O)c3ccccc3-c3ccccc3)oc2c1,ZR-75-1,Western blot,,1 µM,,onset of H3K23ac decline,≤ 10 min
COc1cc2ncnc(Nc3ccc(Oc4ccccc4)c(C)c3C)c2cc1OC,MeWo (NF1 mutant),resazurin,,"0.1 µM, 72 h, together with: trametinib",relative to: DMSO,viability,90%
CC[C@H](C)C(=O)O[C@H]1C[C@@H](C)C=C2C=C[C@H](C)[C@H](CC[C@@H]3C[C@@H](O)CC(=O)O3)[C@H]21,BT-16,"cell viability, MTT",,"10 µM, 72 h",,inhibition,93.9%
CC(C)NCC(O)c1ccc(O)c(O)c1 (centres unmarked),mouse ventricular cardiomyocytes,,,"dose not given, 0.055 s",,sarcomere length,1.8 µm

# Excerpt of the above:
SMILES,cell line,test,test system,conditions,how to read,measurement,value
C=C1C(=O)O[C@H]2[C@H]1CC/C(C)=C/CC[C@@]1(C)O[C@@H]21,BT-16,"cell viability, MTT",,"10 µM, 72 h",,inhibition,94.9%
COc1cccc2c1C(=O)c1c(O)c3c(c(O)c1C2=O)C[C@@](O)(C(=O)CO)C[C@@H]3O[C@H]1C[C@H](N)[C@H](O)[C@H](C)O1,BT-16,"cell viability, MTT",,"10 µM, 72 h",,inhibition,88.7%
COc1cnc2cccc(N3CCc4c(cc(Cn5ccnc5C)cc4-c4cn(C)nc4C(F)(F)F)C3=O)c2c1,Kasumi 1,"cell growth, inhibitor",,120 h,,EC50,11.5 µM
